Measurements collected from several papers.
A part holds a random share of what one study measured.

Series 1 — method: competition protein-binding microarray; form: double-stranded DNA, one strand shown; medium: in vitro; tested at: 2 µM; added: Pho4 competitor, 0.05 µM; reading: higher = stronger binding; shared flanks, not repeated: … GTCTTGATTCGCTTGACGCTGCTG
Target: Centromere-binding protein 1, full length, His-tagged (CBF1, Saccharomyces cerevisiae, UniProt P17106, residues 1-351)
UniProt P17106, sequence (whole entry, looked up): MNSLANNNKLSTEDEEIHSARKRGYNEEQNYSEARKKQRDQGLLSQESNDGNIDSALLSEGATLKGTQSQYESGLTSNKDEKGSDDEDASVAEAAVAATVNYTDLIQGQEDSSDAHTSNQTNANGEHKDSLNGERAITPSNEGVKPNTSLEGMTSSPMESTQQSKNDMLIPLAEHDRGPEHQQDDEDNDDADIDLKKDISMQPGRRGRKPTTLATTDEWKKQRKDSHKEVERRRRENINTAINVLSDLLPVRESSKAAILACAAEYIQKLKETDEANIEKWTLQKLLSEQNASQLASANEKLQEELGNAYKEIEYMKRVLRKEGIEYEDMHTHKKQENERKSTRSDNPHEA
Notes: whole 60-bp probe, lowest competitor level
| Oligonucleotide | fluorescence intensity |
| --- | --- |
| TTGGAGCAGAACAAACACCTGATGACGCGGAAGACG | 162 a.u. |
| CGGGGTTAAGTTTTTCACGTGCCATGCTTGCAGCAG | 1010 a.u. |
| CGTCCTAGTGATTGGTACGTGGGTGCCATGAGGAAG | 78 a.u. |
| CGTCCTAGTGATTGTGTTGTGGGTGCCATGAGGAAG | 87.8 a.u. |
| GAGGTCGCTGCTCAACACGTACATGCAGAAGTAGTG | 63.5 a.u. |
| CTAACGAAGGTTTGGCCTGTGGGTGACAAGCCAAGT | 64.3 a.u. |
| TTGCGCTGCCCAATCCACGTGGAACAATCCTGTTCA | 440 a.u. |
| CATACCCAACCTTGCAGAGTGGGTGAAGATATTTGT | 58.3 a.u. |

Series 2 — method: universal PBM; form: double-stranded DNA, one strand shown; medium: in vitro; tested at: not given; reading: higher = stronger binding
Target: Sal-like protein 4, full length isoform B (SALL4, Homo sapiens, UniProt Q9UJQ4-2, residues 1-616)
Notes: 8-mer, flanks averaged, mean of replicates
Construct (chain): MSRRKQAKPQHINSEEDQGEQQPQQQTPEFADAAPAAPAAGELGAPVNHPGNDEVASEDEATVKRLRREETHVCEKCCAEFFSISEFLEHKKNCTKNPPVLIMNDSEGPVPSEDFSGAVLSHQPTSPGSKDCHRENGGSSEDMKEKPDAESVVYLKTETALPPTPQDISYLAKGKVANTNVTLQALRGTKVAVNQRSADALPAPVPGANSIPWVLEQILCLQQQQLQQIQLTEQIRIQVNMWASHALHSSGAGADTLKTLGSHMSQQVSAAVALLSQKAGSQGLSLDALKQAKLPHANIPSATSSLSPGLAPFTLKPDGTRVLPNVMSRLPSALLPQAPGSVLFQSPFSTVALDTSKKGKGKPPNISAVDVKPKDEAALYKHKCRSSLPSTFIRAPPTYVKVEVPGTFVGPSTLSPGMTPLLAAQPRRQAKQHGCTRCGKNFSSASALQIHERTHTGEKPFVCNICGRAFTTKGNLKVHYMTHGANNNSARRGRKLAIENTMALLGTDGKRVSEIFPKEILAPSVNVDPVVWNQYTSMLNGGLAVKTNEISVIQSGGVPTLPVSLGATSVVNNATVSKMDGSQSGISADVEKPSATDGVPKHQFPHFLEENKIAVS
| Oligonucleotide | E-score |
| --- | --- |
| AATTATGA | 0.449 |
| CAACCTCG | -0.0786 |
| AGTTAGCG | -0.126 |
| CAGTGGCG | -0.324 |
| AATCGTAC | 0.0556 |
| GACCGGCC | -0.392 |
| AGCAAGTG | -0.0121 |
| CACGTAAA | 0.201 |

Series 3 — method: RNAcompete; form: RNA; medium: in vitro; tested at: 20 nM; notes: 7-mer, probes averaged, single round; relative to: mean of 7-mers; reading: higher = stronger binding
Target: PABPC1L2, full length, GST fusion (mouse, UniProt A0ABA7IW68)
Target sequence (chain): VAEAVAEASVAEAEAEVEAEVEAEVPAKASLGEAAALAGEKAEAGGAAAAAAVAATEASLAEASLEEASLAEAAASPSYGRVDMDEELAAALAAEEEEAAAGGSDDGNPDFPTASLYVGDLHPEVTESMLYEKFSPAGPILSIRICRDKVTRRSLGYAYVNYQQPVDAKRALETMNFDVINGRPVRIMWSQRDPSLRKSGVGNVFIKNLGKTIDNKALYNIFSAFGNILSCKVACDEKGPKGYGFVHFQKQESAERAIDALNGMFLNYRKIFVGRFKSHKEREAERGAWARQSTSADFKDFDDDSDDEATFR
| Oligonucleotide | 7-mer Z-score |
| --- | --- |
| AGGUUUA | -0.251 |
| CGGACGA | -0.0246 |
| CACCACU | -0.146 |
| UGGCCAG | -0.19 |
| GUGCCCG | -0.389 |
| GUCGUUU | -0.619 |
| CAAAAAA | 29.5 |
| CACAACC | -0.161 |

Series 4 — action: inhibitor; tested at: 20 µM
Target: Replicase polyprotein 1ab, nsp13 helicase (rep, Severe acute respiratory syndrome coronavirus 2, UniProt P0DTD1)
| SMILES | inhibition [%] |
| --- | --- |
| Clc1ccc(CCC(Cn2ccnc2)Sc2c(Cl)cccc2Cl)cc1 (stereo not shown) | -1.57 |
| N[C@@H](C(=O)N[C@@H]1C(=O)N2C(C(=O)O)=C(Cl)CC[C@H]12)c1ccccc1 | -1.01 |
| Cc1cccc(/C=N/Nc2cc(N3CCOCC3)nc(OCCc3ccccn3)n2)c1 | 3.6 |
| O=C(CCBr)N1CCN(C(=O)CCBr)CC1 | -2.09 |
| C[C@@H]1C(=O)O[C@H]2C[C@@]34[C@H]5C[C@@H](C(C)(C)C)[C@]36[C@@H](OC(=O)[C@@H]6O)O[C@@]4(C(=O)O5)[C@]21O | 8.12 |
| COc1cc2c(NC3CCN(C4CCCCC4)CC3)nc(N3CCCN(C(C)C)CC3)nc2cc1OCCCN1CCCCC1 | 4.54 |
| OCCN1C[C@H](O)[C@@H](O)[C@H](O)[C@H]1CO | 4.11 |
| CS(=O)(=O)CCNCc1nc(-c2ccc3ncnc(Nc4ccc(OCc5cccc(F)c5)c(Cl)c4)c3c2)cs1 | 0.83 |
| O=C(O)c1nc(=O)[nH]c(=O)[nH]1 | -1.48 |
| Cc1ccc(-c2csc3ncnc(SCCC(=O)O)c23)cc1 | 13.1 |
| NC(=O)c1ccc(I)c([N+](=O)[O-])c1 | 5.81 |
| CCC1(C)CC(=O)NC(=O)C1 | -3.17 |
| COCCN1CCN(Cc2ccc(-c3n[nH]c4c3C(=O)c3c(NC(=O)NN5CCOCC5)cccc3-4)cc2)CC1 | 3.23 |
| CC(=O)Oc1ccccc1C(=O)Nc1ccccc1 | 10.8 |
| CCCCCCCCCCCCC/C=C/[C@@H](O)[C@@H](N)COP(=O)([O-])OCC[N+](C)(C)C | 8.67 |
| Brc1ccc(NC2C3CC4CC(C3)CC2C4)cc1 (stereo not shown) | 0.45 |
| CCCCCCCCCCCCCCCCNc1ccc(C(=O)O)cc1 | -18 |
| CC1CCN(CCCC(=O)c2ccc(F)cc2)CC1 | 5.37 |
| OC[C@H]1O[C@H](O)[C@H](O)[C@@H](O)[C@@H]1O | 0.06 |
| CCOC(=O)C1=C(COCCN)NC(C)=C(C(=O)OC)C1c1ccccc1Cl (stereo not shown) | 7.1 |
| O=C(Nc1cc(C(F)(F)F)cc(C(F)(F)F)c1)Nc1c(Br)cc(Br)cc1-c1nn[nH]n1 | 4.66 |
| C[C@@H]1C(=O)O[C@H]2[C@H](O)[C@@]34[C@H]5C[C@@H](C(C)(C)C)[C@]36[C@@H](OC(=O)[C@@H]6O)O[C@@]4(C(=O)O5)[C@@]12O | -0.95 |
| CC(C)[C@@]1(NC(=O)[C@@H]2C[C@@H]3c4cccc5[nH]cc(c45)C[C@H]3N(C)C2)O[C@@]2(O)[C@@H]3CCCN3C(=O)[C@H](Cc3ccccc3)N2C1=O | 7.95 |
| CNCC[C@@H](Oc1ccccc1C)c1ccccc1 | 2.95 |
| COc1ccc([C@@H]2Sc3ccccc3N(CCN(C)C)C(=O)[C@@H]2OC(C)=O)cc1 | 5.43 |

Series 5 — cell line: HEK-293T; effect on: pseudovirus infection; method: FDA-approved drug library screen; organism: VSV pseudotyped with SARS-CoV-2 spike; tested at: 10 µM; time: 16 h; relative to: vehicle-treated
| SMILES | GFP-positive cells [%] |
| --- | --- |
| CCCCC(CC)COC(=O)C(C#N)=C(c1ccccc1)c1ccccc1 (stereo not shown) | 28.7 |
| CC#CCn1c(N2CCC[C@@H](N)C2)nc2c1c(=O)n(Cc1nc(C)c3ccccc3n1)c(=O)n2C | 60.2 |
| CO[C@H]1C[C@@H]2CC[C@@H](C)[C@@](O)(O2)C(=O)C(=O)N2CCCC[C@H]2C(=O)O[C@H]([C@H](C)C[C@@H]2CC[C@@H](O)[C@H](OC)C2)CC(=O)[C@H](C)/C=C(\C)[C@@H](O)[C@@H](OC)C(=O)[C@H](C)C[C@H](C)/C=C/C=C/C=C/1C | 88.7 |
| CCN(CC)C(=S)SSC(=S)N(CC)CC | 85 |

Single results of other studies — action: inhibitor
Target: Replicase polyprotein 1ab, main protease (rep, Severe acute respiratory syndrome coronavirus 2, UniProt P0DTD1)
| SMILES | assay | setting | IC50 [µM] |
| --- | --- | --- | --- |
| COc1ccc2nc(S)[nH]c2c1 | enzyme activity, fluorescence |  | > 20 |
| Nc1nc(=S)c2ncn([C@@H]3O[C@H](CO)[C@@H](O)[C@H]3O)c2[nH]1 | fluorogenic substrate cleavage | 60 min preincubation, 37 °C, added: 1 mM DTT | 1.45 |

For quick reference, copied from above (series 3):
| Oligonucleotide | 7-mer Z-score |
| --- | --- |
| GUCGUUU | -0.619 |
| CAAAAAA | 29.5 |
| CACAACC | -0.161 |
